Measurements pooled from the literature.
Lines come from different studies, so protocols differ. Values joined by “and” are separate records of one study, mostly repeats; a detail may differ. ± marks the error that the study gave.

Structure (SMILES) = O=C1Cc2cc(CCN3CCN(C4=NS(=O)(=O)c5ccccc54)CC3)c(Cl)cc2N1; test system = human liver cytosol; conditions = 1 µM, 30 min, 1 mg/mL protein; measurement = percent metabolized; value = 39.2%
Structure (SMILES) = C1=C(c2cc3c(Nc4ccc5scnc5c4)ncnc3s2)CCNC1; test system = BALB/c mouse, plasma; conditions = oral, 10 mg/kg, 6 h; measurement = concentration; value = 172 ng/mL
Structure (SMILES) = NC(=O)[C@@H](CCCCNC(=O)CNC(=O)CCC(=O)NCCc1c[nH]cn1)NC(=O)[C@@H](Cc1ccc(O)cc1)NC(=O)[C@@H](CCCCNC(=O)CNC(=O)CCC(=O)NCCc1c[nH]cn1)NC(=O)Cc1ccc(CN2CCN(CC(=O)O)CCN(CC(=O)O)CC2)cc1 [fluorine-18 labelled]; test system = tumour-bearing nude mice; conditions = intravenous, 3 h, TF2 pretargeting; how to read = relative to: tumour over blood; measurement = tissue ratio; value = 1240 ± 490
Structure (SMILES) = CSCC[C@@H]1NC(=O)[C@@H]2CSSC[C@H](NC(=O)[C@H](CO)NC(=O)[C@H](C)N)C(=O)N[C@@H](CCCNC(=N)N)C(=O)N[C@@H]([C@@H](C)O)C(=O)N3CCC[C@H]3C(=O)N[C@@H](CCCCN)C(=O)N[C@@H](CC(=O)O)C(=O)N[C@H]3CSSC[C@H](NC(=O)[C@H](CCCCN)NC(=O)[C@H](CCCNC(=N)N)NC(=O)[C@H](CC(N)=O)NC1=O)C(=O)N[C@@H](CCCCN)C(=O)N[C@H]1CSSC[C@H](NC(=O)[C@@H]4CCCN4C(=O)[C@H](CC(=O)O)NC(=O)[C@H](C)NC3=O)C(=O)N[C@@H](C)C(=O)N[C@@H](CCCCN)C(=O)N[C@@H](CCC(=O)O)C(=O)N[C@@H]([C@@H](C)O)C(=O)NCC(=O)N[C@@H](CSSC[C@@H](C(N)=O)NC(=O)[C@H](CCCNC(=N)N)NC(=O)[C@H](CC(N)=O)NC1=O)C(=O)N1CCC[C@H]1C(=O)N[C@@H](Cc1ccc(O)cc1)C(=O)NCC(=O)N[C@@H](CCCCN)C(=O)N2; test system = DA rat, pristane-induced arthritis, serum; conditions = subcutaneous, 0.1 mg/kg once weekly, end of 21-day trial; measurement = albumin; value = 3.62 g/dL
Structure (SMILES) = [2H]C([2H])([2H])C([2H])([2H])C([2H])([2H])OC(C(=O)OC1CCNCC1)(c1ccccc1)c1ccccc1; test system = healthy Japanese male subjects, plasma; conditions = oral, 8 mg once daily, day 16, fed, mean; measurement = Cmax; value = 86.4 ng/mL
Structure (SMILES) = CC(C)[C@H](NC(=O)CNC(=O)[C@@H]1CCCN1C(=O)[C@H](Cc1ccccc1)NC(=O)CNC(=O)[C@@H](NC(=O)CNC(=O)[C@@H]1CCCN1C(=O)[C@H](Cc1ccccc1)NC(=O)CNC(=O)[C@@H](NC(=O)CNC(=O)[C@@H]1CCCN1C(=O)[C@H](Cc1ccccc1)NC(=O)CNC(=O)[C@@H](NC(=O)CNC(=O)[C@@H]1CCCN1C(=O)[C@H](Cc1ccccc1)NC(=O)CNC(=O)[C@@H](NC(=O)CNC(=O)[C@@H]1CCCN1C(=O)[C@H](Cc1ccccc1)NC(=O)CN(CC(=O)N[C@@H](Cc1ccccc1)C(=O)N1CCC[C@H]1C(=O)NCC(=O)N[C@H](C(=O)NCC(=O)N[C@@H](Cc1ccccc1)C(=O)N1CCC[C@H]1C(=O)NCC(=O)N[C@H](C(=O)NCC(=O)N[C@@H](Cc1ccccc1)C(=O)N1CCC[C@H]1C(=O)NCC(=O)N[C@H](C(=O)NCC(=O)N[C@@H](Cc1ccccc1)C(=O)N1CCC[C@H]1C(=O)NCC(=O)N[C@H](C(=O)NCC(=O)N[C@@H](Cc1ccccc1)C(=O)N1CCC[C@H]1C(=O)NCC(=O)N[C@H](C(=O)NCC(N)=O)C(C)C)C(C)C)C(C)C)C(C)C)C(C)C)CC(=O)N[C@@H](Cc1ccccc1)C(=O)N1CCC[C@H]1C(=O)NCC(=O)N[C@H](C(=O)NCC(=O)N[C@@H](Cc1ccccc1)C(=O)N1CCC[C@H]1C(=O)NCC(=O)N[C@H](C(=O)NCC(=O)N[C@@H](Cc1ccccc1)C(=O)N1CCC[C@H]1C(=O)NCC(=O)N[C@H](C(=O)NCC(=O)N[C@@H](Cc1ccccc1)C(=O)N1CCC[C@H]1C(=O)NCC(=O)N[C@H](C(=O)NCC(=O)N[C@@H](Cc1ccccc1)C(=O)N1CCC[C@H]1C(=O)NCC(=O)N[C@H](C(=O)NCC(N)=O)C(C)C)C(C)C)C(C)C)C(C)C)C(C)C)C(C)C)C(C)C)C(C)C)C(C)C)C(=O)NCC(N)=O; test system = water; conditions = insoluble at this concentration; measurement = water solubility; value = < 100 µg/mL
Structure (SMILES) = Cc1cccc(-c2cccc(C)n2)n1.[Cl-].[Cl-].[Ru+2].c1ccc(-c2ccccn2)nc1.c1ccc(-c2ccccn2)nc1; test = shake flask; test system = n-octanol/water; conditions = dark; measurement = log P; value = -1.85 ± 0.04
Structure (SMILES) = CC[C@H](C)C(=O)N1CCC(NC(=O)Nc2ccc(OC(F)(F)F)c(F)c2)CC1; test system = healthy volunteers, both sexes; conditions = oral, 8 mg single dose, fed state; measurement = participants with any Treatment‐Related TEAE; value = 0%
Structure (SMILES) = CC(=O)[O-].CN1CCCN2CCN(CCCN(Cc3ccccc3)CC2)CC1.F[P-](F)(F)(F)(F)F.[Co+2]; test = cyclic voltammetry, refers to: second Co2+/Co3+ couple; test system = acetonitrile; measurement = peak separation; value = 100 mV
Structure (SMILES) = CC[C@H](C)[C@@H]1NC(=O)[C@H](CCCCN)NC(=O)[C@H](CCCCN)NC(=O)[C@H](Cc2ccc(O)cc2)NC(=O)[C@H](CC(C)C)NC(=O)[C@@H]2CCCN2C(=O)CNC(=O)CNC(=O)[C@@H](NC(=O)CN)CSSC[C@@H](C(=O)N[C@@H](CCC(=O)O)C(=O)N[C@@H](CO)C(N)=O)NC(=O)[C@H](CC(C)C)NC(=O)[C@H](CCCCN)NC(=O)[C@H](CCCCN)NC(=O)[C@H]([C@@H](C)CC)NC(=O)[C@H]([C@@H](C)CC)NC(=O)[C@H](CCCCN)NC(=O)[C@H](CCCCN)NC(=O)[C@H](Cc2ccc(O)cc2)NC(=O)[C@H](CC(C)C)NC(=O)[C@@H]2CCCN2C(=O)[C@H](C)NC(=O)CNC(=O)CNC(=O)[C@H](CO)NC(=O)CNC(=O)CNC(=O)[C@H](CO)NC(=O)[C@H](CCCCN)NC(=O)[C@H](CC(C)C)NC(=O)[C@H](CC(C)C)NC(=O)[C@H](CCCCN)NC(=O)[C@H](CCCCN)NC(=O)[C@H]([C@@H](C)CC)NC1=O; test system = 25% human serum; conditions = 50 µM, 24 h; how to read = relative to: 0 h control; measurement = remaining intact peptide; value = 0%
Structure (SMILES) = COc1cc(NC(=O)C(=O)c2c(C)n(Cc3ccc(Cl)cc3)c3ccc(C)cc23)ccn1; test system = female cynomolgus monkey, plasma; conditions = intravenous, 1 mg/kg; measurement = C0; value = 2880 ng/mL and 2610 ng/mL and 2490 ng/mL and 2600 ng/mL and 2210 ng/mL
Structure (SMILES) = CC[C@H](C)[C@H](NC(=O)[C@H](CC(=O)O)NC(=O)[C@H](CO)NC(=O)[C@H](CCC(N)=O)NC(=O)[C@H](C)NC(=O)[C@H](CC(=O)O)NC(=O)[C@H](CCC(=O)O)NC(=O)[C@H](Cc1c[nH]cn1)NC(=O)[C@H](Cc1ccc(O)cc1)NC(=O)[C@H](C)NC(=O)[C@H](CC(=O)O)NC(=O)[C@H](CCC(=O)O)NC(=O)[C@H](Cc1c[nH]cn1)NC(=O)[C@H](Cc1ccc(O)cc1)NC(=O)[C@H](C)NC(=O)[C@H](CC(=O)O)NC(=O)[C@H](CCC(=O)O)NC(=O)[C@H](Cc1c[nH]cn1)NC(=O)[C@H](Cc1ccc(O)cc1)NC(=O)[C@H](C)NC(=O)[C@H](CC(=O)O)NC(=O)[C@H](CCC(=O)O)NC(=O)[C@H](Cc1c[nH]cn1)NC(=O)[C@H](Cc1ccc(O)cc1)NC(=O)[C@H](C)NC(=O)[C@H](CC(=O)O)NC(=O)[C@H](CCC(=O)O)NC(=O)[C@H](Cc1c[nH]cn1)NC(=O)[C@@H](N)Cc1ccc(O)cc1)C(=O)N[C@H](C(=O)N[C@@H](C)C(=O)N[C@@H](Cc1c[nH]cn1)C(=O)N[C@@H](CC(C)C)C(=O)N[C@@H](CC(C)C)C(=O)O)C(C)C; test system = normal mouse; conditions = dose not given; measurement = MCV; value = 46.5 ± 3 fL
Structure (SMILES) = CN(C)C(CNC(=O)Nc1cc(C(F)(F)F)ccc1N1CCOCC1)c1ccncc1 (stereo not drawn); test system = mouse, serum; conditions = intraperitoneal, 240 mg/kg single dose; measurement = serum alkaline phosphatase; value = 75 U/L
Structure (SMILES) = CCN(CC)c1ccc2c(-c3ccccc3C(=O)OCCC[18F])c3ccc(=[N+](CC)CC)cc-3oc2c1; test = microPET; test system = rat, liver; conditions = dose not given, 5 min post injection; measurement = radioactivity concentration; value = 65 ± 6 kBq/cm³
Structure (SMILES) = COc1ccc(NC(=O)Cn2c(=O)c3ccccc3n(CC(=O)Nc3cc([125I])c(OC)cc3OC)c2=O)cc1; test system = rat, kidney; conditions = intravenous, 5 min; measurement = tracer uptake; value = 0.58 %ID/g
Structure (SMILES) = C[C@]12CC[C@H](OC(=O)NC3CCNCC3)C[C@H]1CC[C@@H]1[C@@H]2CC[C@]2(C)[C@@H](c3ccc(=O)oc3)CC[C@]12O; test system = male Sprague-Dawley rats, plasma; conditions = intravenous, 5 mg/kg; measurement = volume of distribution; value = 1.37 ± 0.45 L/kg
Structure (SMILES) = NCCCC[C@H](NC(=O)[C@H](Cc1ccccc1)NC(=O)[C@H](CCCCN)NC(=O)[C@H](Cc1ccccc1)NC(=O)[C@H](CCC(=O)O)NC(=O)[C@H](Cc1ccccc1)NC(=O)[C@H](CCC(=O)O)NC(=O)[C@@H](N)Cc1ccccc1)C(=O)O; test = RP-HPLC; test system = cell-free hydrogel in medium; conditions = day 12, 10% FBS; how to read = relative to: day 0; measurement = intact peptide remaining; value = 5.3 ± 1.3%
Structure (SMILES) = CCN(CCCCOc1ccc(CCC(=O)N2CCC(Cc3ccccc3)CC2)cc1OC)Cc1ccccc1; test system = Sprague-Dawley rats, both sexes, brain; conditions = oral, 25 mg/kg, 0.75 h; measurement = concentration; value = 1400 ng/g
Structure (SMILES) = N=C(N)NCc1ccc(C(=O)NCCCC[C@H](NC(=O)N[C@@H](CCC(=O)O)C(=O)O)C(=O)O)cc1[211At]; test system = SCID mouse, PC-3 xenografts, stomach; conditions = 21 h; measurement = tissue uptake; value = 1.91 ± 0.95 %ID/g
Structure (SMILES) = CCCCCCCCCCCCC(=O)O.O=C1CCCC2C3CCCN4CCCC(CN12)C34 (stereo not drawn); test = shake-flask; test system = simulated body fluid; conditions = pH 7.4, 37 °C; measurement = log octanol-water partition coefficient; value = 0.99
Structure (SMILES) = CC(C)C[C@H](NC(=O)[C@H](CCCCN)NC(=O)[C@H](CCC(=O)O)NC(=O)[C@H](C)NC(=O)[C@@H](NC(=O)[C@H](CCCCN)NC(=O)[C@H](CC(=O)O)NC(=O)[C@H](Cc1ccc(O)cc1)NC(=O)[C@H](Cc1ccccc1)NC(=O)[C@H](C)NC(=O)[C@H](CCCCN)NC(=O)[C@H](CC(C)C)NC(=O)[C@H](Cc1c[nH]c2ccccc12)NC(=O)[C@@H](N)CC(=O)O)C(C)C)C(=O)N[C@@H](CCCCN)C(=O)N[C@@H](CCC(=O)O)C(=O)N[C@@H](C)C(=O)N[C@@H](Cc1ccccc1)C(=O)N1CCC[C@H]1C(=O)N[C@@H](CC(=O)O)C(=O)N[C@@H](Cc1c[nH]c2ccccc12)C(=O)N[C@@H](C)C(=O)N[C@@H](CCCCN)C(=O)N[C@@H](C)C(=O)N[C@@H](C)C(=O)N[C@@H](Cc1ccc(O)cc1)C(=O)N[C@@H](CC(=O)O)C(=O)N[C@@H](CCCCN)C(=O)N[C@@H](C)C(=O)N[C@@H](C)C(=O)N[C@@H](CCC(=O)O)C(=O)N[C@@H](CCCCN)C(=O)N[C@@H](C)C(=O)N[C@@H](CCCCN)C(=O)N[C@@H](CCC(=O)O)C(=O)N[C@@H](C)C(=O)N[C@@H](C)C(=O)O; test system = cynomolgus monkey male, plasma; conditions = intravenous infusion, 8 mg/kg every other day, day 27; measurement = half-life; value = 2.7 h
